Measurements of several laboratories.
A part holds a random share of what one study measured.
Sequence of UniProt P10721 (whole entry, unmodified, looked up): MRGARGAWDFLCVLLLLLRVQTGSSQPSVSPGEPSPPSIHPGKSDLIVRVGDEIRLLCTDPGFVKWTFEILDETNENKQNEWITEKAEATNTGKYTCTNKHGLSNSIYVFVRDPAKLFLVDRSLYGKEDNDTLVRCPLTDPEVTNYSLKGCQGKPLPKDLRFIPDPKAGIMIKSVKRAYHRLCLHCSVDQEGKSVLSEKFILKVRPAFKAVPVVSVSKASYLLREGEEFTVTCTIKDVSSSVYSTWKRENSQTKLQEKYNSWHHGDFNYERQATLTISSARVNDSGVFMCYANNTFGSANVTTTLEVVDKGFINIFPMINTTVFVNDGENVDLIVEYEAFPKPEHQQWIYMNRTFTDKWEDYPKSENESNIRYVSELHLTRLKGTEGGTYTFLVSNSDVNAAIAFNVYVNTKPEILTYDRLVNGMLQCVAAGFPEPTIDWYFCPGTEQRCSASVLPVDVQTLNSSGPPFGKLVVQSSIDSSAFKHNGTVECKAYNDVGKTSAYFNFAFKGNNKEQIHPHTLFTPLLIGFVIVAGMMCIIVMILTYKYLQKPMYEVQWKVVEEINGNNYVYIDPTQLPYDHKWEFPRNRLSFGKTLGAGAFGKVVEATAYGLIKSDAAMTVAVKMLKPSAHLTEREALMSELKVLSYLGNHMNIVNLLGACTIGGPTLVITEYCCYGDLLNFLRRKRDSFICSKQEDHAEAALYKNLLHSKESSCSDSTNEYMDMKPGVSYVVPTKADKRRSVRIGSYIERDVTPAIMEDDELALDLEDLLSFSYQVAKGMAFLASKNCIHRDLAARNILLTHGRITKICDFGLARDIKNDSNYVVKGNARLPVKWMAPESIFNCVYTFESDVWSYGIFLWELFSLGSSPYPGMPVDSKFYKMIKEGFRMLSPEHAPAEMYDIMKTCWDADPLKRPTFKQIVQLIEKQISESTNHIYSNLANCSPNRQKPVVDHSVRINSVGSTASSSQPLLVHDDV
Sequence of UniProt Q5S007 (whole entry, looked up): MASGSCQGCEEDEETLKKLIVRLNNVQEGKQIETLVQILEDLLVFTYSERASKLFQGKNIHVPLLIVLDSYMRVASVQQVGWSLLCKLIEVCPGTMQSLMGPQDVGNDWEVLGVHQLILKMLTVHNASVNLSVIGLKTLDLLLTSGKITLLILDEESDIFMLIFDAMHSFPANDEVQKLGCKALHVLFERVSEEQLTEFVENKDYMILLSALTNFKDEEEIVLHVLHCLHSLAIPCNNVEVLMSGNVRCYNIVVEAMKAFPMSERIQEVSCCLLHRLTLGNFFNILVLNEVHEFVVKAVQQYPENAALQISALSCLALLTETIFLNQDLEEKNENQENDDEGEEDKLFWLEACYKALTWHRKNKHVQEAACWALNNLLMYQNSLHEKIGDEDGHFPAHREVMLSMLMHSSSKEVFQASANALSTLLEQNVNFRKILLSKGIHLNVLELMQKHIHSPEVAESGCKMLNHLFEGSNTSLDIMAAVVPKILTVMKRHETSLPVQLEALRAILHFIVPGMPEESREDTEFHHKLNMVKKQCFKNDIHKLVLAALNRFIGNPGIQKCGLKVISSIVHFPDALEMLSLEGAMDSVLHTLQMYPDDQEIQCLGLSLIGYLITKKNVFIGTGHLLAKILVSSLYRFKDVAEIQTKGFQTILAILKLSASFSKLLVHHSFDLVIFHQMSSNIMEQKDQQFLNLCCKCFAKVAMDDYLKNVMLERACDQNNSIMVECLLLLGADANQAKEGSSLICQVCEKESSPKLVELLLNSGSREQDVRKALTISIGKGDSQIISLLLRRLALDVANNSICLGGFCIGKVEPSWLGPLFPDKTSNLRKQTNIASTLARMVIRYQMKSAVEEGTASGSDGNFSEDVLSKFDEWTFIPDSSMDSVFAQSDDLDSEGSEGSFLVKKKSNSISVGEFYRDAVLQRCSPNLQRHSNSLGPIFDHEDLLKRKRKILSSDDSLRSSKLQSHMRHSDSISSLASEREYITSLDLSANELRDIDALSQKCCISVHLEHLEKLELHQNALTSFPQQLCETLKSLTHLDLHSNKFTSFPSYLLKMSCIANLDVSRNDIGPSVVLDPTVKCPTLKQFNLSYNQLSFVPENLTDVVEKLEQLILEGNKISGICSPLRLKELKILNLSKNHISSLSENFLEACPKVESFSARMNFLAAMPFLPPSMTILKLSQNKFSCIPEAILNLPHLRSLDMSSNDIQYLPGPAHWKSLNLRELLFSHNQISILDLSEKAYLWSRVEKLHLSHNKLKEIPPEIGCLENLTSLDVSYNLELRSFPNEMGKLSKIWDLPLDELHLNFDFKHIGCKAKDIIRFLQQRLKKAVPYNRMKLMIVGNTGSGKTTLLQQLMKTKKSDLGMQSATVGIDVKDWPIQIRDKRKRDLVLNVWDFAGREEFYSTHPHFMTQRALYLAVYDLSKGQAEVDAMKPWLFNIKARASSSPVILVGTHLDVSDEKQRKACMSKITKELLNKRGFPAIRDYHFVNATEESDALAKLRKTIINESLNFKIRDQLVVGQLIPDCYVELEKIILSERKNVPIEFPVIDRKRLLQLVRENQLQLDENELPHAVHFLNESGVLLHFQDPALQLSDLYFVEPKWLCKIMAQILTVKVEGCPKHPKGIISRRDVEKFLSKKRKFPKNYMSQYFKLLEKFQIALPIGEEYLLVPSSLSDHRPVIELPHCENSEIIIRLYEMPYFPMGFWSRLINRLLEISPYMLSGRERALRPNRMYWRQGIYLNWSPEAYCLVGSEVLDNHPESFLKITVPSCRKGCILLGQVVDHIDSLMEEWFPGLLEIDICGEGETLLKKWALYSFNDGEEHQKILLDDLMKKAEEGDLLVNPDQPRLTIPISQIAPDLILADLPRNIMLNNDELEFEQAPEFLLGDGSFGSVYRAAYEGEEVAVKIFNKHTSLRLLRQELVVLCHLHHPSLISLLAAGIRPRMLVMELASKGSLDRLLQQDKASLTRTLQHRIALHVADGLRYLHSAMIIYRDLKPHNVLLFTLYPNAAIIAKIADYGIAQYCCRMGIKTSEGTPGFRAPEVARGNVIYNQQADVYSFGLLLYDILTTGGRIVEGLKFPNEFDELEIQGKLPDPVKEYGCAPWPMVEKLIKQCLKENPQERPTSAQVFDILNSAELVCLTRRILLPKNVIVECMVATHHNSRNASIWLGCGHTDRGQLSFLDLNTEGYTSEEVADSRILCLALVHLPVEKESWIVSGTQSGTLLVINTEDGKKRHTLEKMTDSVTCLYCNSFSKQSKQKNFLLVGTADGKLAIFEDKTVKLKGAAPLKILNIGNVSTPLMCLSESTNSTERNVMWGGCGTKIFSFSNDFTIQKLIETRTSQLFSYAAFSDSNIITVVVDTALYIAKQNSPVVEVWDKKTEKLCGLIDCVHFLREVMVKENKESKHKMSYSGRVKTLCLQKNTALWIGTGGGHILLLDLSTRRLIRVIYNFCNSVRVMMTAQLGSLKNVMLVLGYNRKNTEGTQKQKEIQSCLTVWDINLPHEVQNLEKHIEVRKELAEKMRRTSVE
Sequence of UniProt Q9NYY3 (whole entry, looked up): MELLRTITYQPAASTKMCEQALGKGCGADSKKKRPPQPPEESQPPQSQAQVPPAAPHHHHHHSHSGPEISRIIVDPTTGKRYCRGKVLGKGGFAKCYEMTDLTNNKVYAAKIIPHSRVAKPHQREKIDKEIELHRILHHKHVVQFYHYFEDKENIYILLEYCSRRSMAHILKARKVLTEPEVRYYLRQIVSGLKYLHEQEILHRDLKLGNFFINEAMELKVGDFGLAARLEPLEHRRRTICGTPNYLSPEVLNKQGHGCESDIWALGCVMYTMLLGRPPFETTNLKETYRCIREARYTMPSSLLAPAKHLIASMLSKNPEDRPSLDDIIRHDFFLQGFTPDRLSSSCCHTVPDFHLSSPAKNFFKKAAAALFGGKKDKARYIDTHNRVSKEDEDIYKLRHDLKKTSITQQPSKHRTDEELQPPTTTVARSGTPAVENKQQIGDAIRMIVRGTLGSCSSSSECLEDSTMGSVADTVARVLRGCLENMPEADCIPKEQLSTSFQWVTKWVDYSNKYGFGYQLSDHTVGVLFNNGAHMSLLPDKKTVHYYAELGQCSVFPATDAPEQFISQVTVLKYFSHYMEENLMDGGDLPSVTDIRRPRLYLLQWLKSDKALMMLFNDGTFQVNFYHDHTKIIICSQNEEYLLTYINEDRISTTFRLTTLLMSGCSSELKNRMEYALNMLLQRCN
Sequence of UniProt P50750 (whole entry, looked up): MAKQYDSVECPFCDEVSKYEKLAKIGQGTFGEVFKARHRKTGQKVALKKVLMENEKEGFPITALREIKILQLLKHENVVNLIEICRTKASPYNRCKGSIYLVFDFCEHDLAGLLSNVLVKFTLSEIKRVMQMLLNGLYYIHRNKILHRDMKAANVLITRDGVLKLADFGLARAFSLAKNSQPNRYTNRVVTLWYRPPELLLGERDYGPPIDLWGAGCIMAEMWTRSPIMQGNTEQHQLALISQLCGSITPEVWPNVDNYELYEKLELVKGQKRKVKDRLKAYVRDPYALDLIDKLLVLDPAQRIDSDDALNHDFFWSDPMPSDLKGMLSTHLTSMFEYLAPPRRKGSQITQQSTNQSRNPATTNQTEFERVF
Sequence of UniProt P68400 (whole entry, looked up): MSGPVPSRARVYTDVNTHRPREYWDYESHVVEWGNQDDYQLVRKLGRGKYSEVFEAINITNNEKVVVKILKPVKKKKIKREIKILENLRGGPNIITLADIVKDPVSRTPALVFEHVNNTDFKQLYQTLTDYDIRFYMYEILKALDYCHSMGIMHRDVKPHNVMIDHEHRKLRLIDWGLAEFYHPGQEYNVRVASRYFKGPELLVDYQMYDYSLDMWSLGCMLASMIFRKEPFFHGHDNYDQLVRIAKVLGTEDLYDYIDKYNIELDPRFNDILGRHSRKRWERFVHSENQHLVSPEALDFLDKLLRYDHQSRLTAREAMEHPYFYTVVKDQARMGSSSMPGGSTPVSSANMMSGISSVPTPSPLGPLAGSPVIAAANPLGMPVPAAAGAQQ

Series 1 — method: RNAcompete; molecule type: RNA; medium: in vitro; tested at: 20 nM; setting: 7-mer, probes averaged, single round; baseline: mean of 7-mers; reading: higher = stronger binding; endpoint: 7-mer Z-score
Target: PABPC1L2, full length, GST fusion (mouse, UniProt A0ABA7IW68)
Residues (chain): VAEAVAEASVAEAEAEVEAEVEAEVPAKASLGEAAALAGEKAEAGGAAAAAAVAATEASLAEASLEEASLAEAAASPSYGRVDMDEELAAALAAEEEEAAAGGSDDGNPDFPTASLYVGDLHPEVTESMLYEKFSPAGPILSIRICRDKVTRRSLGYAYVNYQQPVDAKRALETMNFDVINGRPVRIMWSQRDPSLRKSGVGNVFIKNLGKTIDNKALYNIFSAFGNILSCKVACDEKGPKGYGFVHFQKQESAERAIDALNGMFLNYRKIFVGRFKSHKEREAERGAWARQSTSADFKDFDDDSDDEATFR
Sequence = GAUCGGU; result = -0.179
Sequence = GCCAGCG; result = -0.211
Sequence = UUGCAUC; result = -0.32
Sequence = CAGCACU; result = -0.219
Sequence = CCUUAAG; result = -0.329
Sequence = CACAGCC; result = -0.267
Sequence = AAGCUGU; result = -0.0174
Sequence = GACACGU; result = -0.213

Series 2 — read-out: enzyme activity; action: inhibitor; tested at: 0.5 µM; baseline: control; endpoint: remaining activity
SMILES: CN(C)CCCn1cc(C2=C(c3c[nH]c4ccccc34)C(=O)NC2=O)c2ccccc21
target = Leucine-rich repeat serine/threonine-protein kinase 2 (LRRK2, Homo sapiens, UniProt Q5S007); result = 89.8%
target = Mast/stem cell growth factor receptor Kit (KIT, Homo sapiens, UniProt P10721); result = 69.5%
target = Cyclin-dependent kinase 9, with cyclin T1 (CDK9, Homo sapiens, UniProt P50750); result = 65.3%
target = cGMP-dependent protein kinase 1 (PRKG1, Homo sapiens, UniProt Q13976); result = 38.3%
target = Casein kinase II subunit alpha (CSNK2A1, Homo sapiens, UniProt P68400); result = 99.5%
target = Interleukin-1 receptor-associated kinase 4 (IRAK4, Homo sapiens, UniProt Q9NWZ3); result = 135%
target = Mitogen-activated protein kinase 12 (MAPK12, Homo sapiens, UniProt P53778); result = 95.9%
target = Serine/threonine-protein kinase Nek4 (NEK4, Homo sapiens, UniProt P51957); result = 94.3%
target = Protein kinase C iota type (PRKCI, Homo sapiens, UniProt P41743); result = 55.9%
target = Serine/threonine-protein kinase PLK2 (PLK2, Homo sapiens, UniProt Q9NYY3); result = 97.3%

Series 3 — method: protein binding microarray; molecule type: double-stranded DNA, one strand shown; medium: in vitro; tested at: not given; baseline: not given; reading: higher = stronger binding; endpoint: E-score
Target: Histone acetyltransferase KAT6A, winged helix 2, GST fusion (KAT6A, Homo sapiens, UniProt Q92794, residues 85-181)
Setting: 8-mer, flanks averaged, mean of 2 arrays, mostly near background
Residues (chain): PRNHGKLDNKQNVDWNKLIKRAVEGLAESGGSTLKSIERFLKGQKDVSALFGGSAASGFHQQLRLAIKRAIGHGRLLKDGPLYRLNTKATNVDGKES
Sequence = TGTTGAAA; result = -0.0246
Sequence = CCTTTAGA; result = -0.154
Sequence = CCCGAAAG; result = 0.0262
Sequence = ACAGACAC; result = 0.166
Sequence = AAGCGCAG; result = 0.218
Sequence = AGCCCCAT; result = -0.079
Sequence = AAGGCATT; result = 0.0509
Sequence = CCCTGACC; result = 0.135

Series 4 — read-out: cell-free assay; method: competition with immobilised ligand; tested at: 1 µM; endpoint: remaining binding
SMILES: Cc1cc(-n2nc(Cc3cc(F)cc(C(F)(F)F)c3)nc2C)ccc1C(N)=O
target = Tyrosine-protein kinase ABL1, non-phosphorylated (ABL1, Homo sapiens, UniProt P00519, H396P); result = 97%
target = Tyrosine-protein kinase ABL1, phosphorylated (ABL1, Homo sapiens, UniProt P00519, Q252H); result = 100%
target = Mast/stem cell growth factor receptor Kit (KIT, Homo sapiens, UniProt P10721, L576P); result = 52%
target = Mitogen-activated protein kinase kinase kinase 14 (MAP3K14, Homo sapiens, UniProt Q99558); result = 100%
target = Dual specificity mitogen-activated protein kinase kinase 7 (MAP2K7, Homo sapiens, UniProt O14733); result = 100%

Excerpt of the above (series 1):
Sequence = UUGCAUC; result = -0.32
Sequence = CAGCACU; result = -0.219
Sequence = CCUUAAG; result = -0.329
Sequence = CACAGCC; result = -0.267
